Results pooled from the literature.
Compare with care: the assays were run in different laboratories. Numbers after ± are the reported error.
Chain of UniProt P45880 (whole entry, looked up): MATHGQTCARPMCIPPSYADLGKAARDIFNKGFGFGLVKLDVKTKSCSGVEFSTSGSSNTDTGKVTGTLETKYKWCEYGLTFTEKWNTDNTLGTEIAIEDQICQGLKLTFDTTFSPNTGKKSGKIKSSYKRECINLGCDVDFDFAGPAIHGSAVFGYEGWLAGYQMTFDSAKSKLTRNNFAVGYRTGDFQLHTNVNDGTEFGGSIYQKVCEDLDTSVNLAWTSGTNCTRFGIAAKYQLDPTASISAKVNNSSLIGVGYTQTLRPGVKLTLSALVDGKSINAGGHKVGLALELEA

| Structure (SMILES) | target or system | assay | test system | conditions | scale | quantity | value |
| --- | --- | --- | --- | --- | --- | --- | --- |
| COc1c(CCC[P+](c2ccccc2)(c2ccccc2)c2ccccc2)cc2c(c1OC)OCO2.[I-] | SNB-75 | SRB |  |  |  | TGI | -5.29 log M |
| Nc1ncc(-c2nc(N3CCOCC3)nc(N3CCOCC3)n2)c(C(F)F)n1 | Jurkat E6-1 | cell growth |  | 72 h |  | GI50 | 0.465 µM |
| CN1CCN(C2(CNC3CCN(c4cccc(-c5cc6cc(F)ccc6[nH]5)c4)CC3)CCC2)CC1 | IGROV-1 |  |  |  |  | GI50 | 1.86 µM |
| O=S(=O)(c1ccc(O)cc1)c1ccc(O)cc1 | HepG2 spheroids | Hoechst flow cytometry |  | 10 µM, 96 h |  | S phase cells | 12 ± 7.2% |
| C[C@H]1CN(c2n[nH]c3nc(N[C@H]4CC[C@H](NS(=O)(=O)CCC(F)(F)F)CC4)ncc23)CCO1 | Non-selective voltage-gated ion channel VDAC2 (Homo sapiens, UniProt P45880) | Kinobeads competition, measured: VDAC2 |  | 0.16 µM, unit not given | baseline: vehicle | remaining binding | 0.98 |
| CO[C@H]1C[C@@H]2CC[C@@H](C)[C@@](O)(O2)C(=O)C(=O)N2CCCC[C@H]2C(=O)O[C@H]([C@H](C)C[C@@H]2CC[C@@H](OC(=O)NCCOCCOCCOCCOCCOCCOCCOCCOCCC(=O)N3CCc4cc(Cn5nc(-c6ccc7oc(N)nc7c6)c6c(N)ncnc65)ccc4C3)[C@H](OC)C2)C[C@@H](O)[C@H](C)/C=C(\C)[C@@H](O)[C@@H](OC)C(=O)[C@H](C)C[C@H](C)/C=C/C=C/C=C/1C |  |  | patients with advanced solid tumours | intravenous, 12 mg weekly, grade 3 or higher |  | fatigue incidence | 0% |
| CC(C)N1CCC(NC2CCN(c3cccc(-c4cc5cc(F)ccc5[nH]4)c3)CC2)CC1 | SK-OV-3 |  |  |  |  | CC50 | 5.8 µM |
| COc1ccc2c(c1)[nH]c1c(C)nccc12 | DU-145 | bisulfite pyrosequencing, measured: RASSF1A promoter CpG site 1 |  | concentration not given | baseline: vehicle | methylation reduction | 16.6% |
| Nc1ncnc2c1ncn2[C@@H]1O[C@@H]2COP(=O)(O)O[C@H]3[C@@H](O)[C@H](n4cnc5c(=O)[nH]cnc54)O[C@@H]3COP(=O)(O)O[C@H]2[C@H]1O | HFF-1 | RNA sequencing, measured: Reactome Interferon alpha/beta signaling |  | upregulated pathways | baseline: mock | fold enrichment | 24.6 |
| CCc1cccc(N(C)C(=N)Nc2cccc3ccccc23)c1 | Plasmodium falciparum |  | W2 |  |  | IC50 | 1 µM |
| CC[C@H](C)[C@H](NC(=O)[C@H](Cc1ccccc1)NC(=O)[C@H](CCC(=O)O)NC(=O)[C@H](CCCNC(=N)N)NC(=O)[C@H](C)NC(=O)[C@H](C)NC(=O)[C@H](CCC(N)=O)NC(=O)[C@H](CCC(=O)O)NC(=O)[C@H](CCC(=O)O)NC(=O)[C@H](CC(C)C)NC(=O)[C@H](Cc1ccc(O)cc1)NC(=O)[C@H](CO)NC(=O)[C@H](CO)NC(=O)[C@@H](NC(=O)[C@H](CC(=O)O)NC(=O)[C@H](CO)NC(=O)[C@@H](NC(=O)[C@H](Cc1ccccc1)NC(=O)[C@@H](NC(=O)CNC(=O)[C@H](CCC(=O)O)NC(=O)[C@H](C)NC(=O)CCc1c[nH]cn1)[C@@H](C)O)[C@@H](C)O)C(C)C)C(=O)N[C@@H](C)C(=O)N[C@@H](Cc1c[nH]c2ccccc12)C(=O)N[C@@H](CC(C)C)C(=O)N[C@H](C(=O)N[C@@H](CCCNC(=N)N)C(=O)NCC(=O)N[C@@H](CCCNC(=N)N)C(=O)N[C@@H](CCCCNC(=O)COCCOCCNC(=O)COCCOCCNC(=O)CC[C@H](NC(=O)CCCCCCCCCCCCCCCCC(=O)O)C(=O)O)C(=O)NCC(=O)NCC(=O)N[C@@H](CO)C(=O)N[C@@H](CCCCNc1c(NCCCCCN(O)C(=O)CCC(=O)NCCCCCN(O)C(=O)CCC(=O)NCCCCCN(O)C(C)=O)c(=O)c1=O)C(=O)O)C(C)C [zirconium-89 labelled] |  |  | rat, duodenum | iv, 3 nmol/kg, 168 h, ex vivo |  | tissue uptake | 0.15 %ID/g |
| CC[C@H](C)[C@@H]1NC(=O)[C@@H]2CCCN2C(=O)[C@H](CC(C)C)NC(=O)[C@H](CC(C)C)NC(=O)CNC(=O)[C@@H](NC(=O)[C@@H](NC(=O)[C@H](CC(=O)O)NC(=O)CNC(=O)[C@@H](NC(=O)[C@H](C)NC(=O)CNC(=O)[C@H](CCCCN)NC(=O)[C@H](CC(C)C)NC(=O)[C@H](CC(C)C)NC(=O)[C@H](CCCCN)NC(=O)CNC(=O)[C@@H](NC(=O)[C@@H](N)CC(C)C)C(C)C)C(C)C)C(C)C)CSSC[C@@H](C(=O)O)NC1=O |  | RNA-seq, measured: Slc17a9 | mouse, traumatic brain injury model, frontal cortex and hippocampus | dose not given | baseline: TBI alone | log2 fold change | -1.96 |
| COc1cc(CCC[P+](c2ccccc2)(c2ccccc2)c2ccccc2)c(OC)c2c1OCO2.[I-] | NCI-H226 | SRB |  |  |  | GI50 | -5.5 log M |
| COc1c(C)c2c(c(O)c1C/C=C(\C)CCC(=O)O)C(=O)OC2 | Hs 729 | cell proliferation |  |  |  | IC50 | 3.02 µM |
| C/C=C(/C)C(=O)O[C@H]1C(C)=C2[C@H]([C@@H]1OC(=O)CCCCCCC)[C@@](C)(OC(C)=O)C[C@H](OC(=O)CCC)[C@@]1(O)[C@H]2OC(=O)[C@@]1(C)O | HEK293T | RNA-seq, measured: MTHFR mRNA |  | 10 µM, 6 h | baseline: vehicle | log2 fold change | -0.205 |
